Measurements gathered from unrelated publications.
Values after ≈ are worked out from the molar mass of the structure shown.
Chain of UniProt Q16620 (whole entry, looked up): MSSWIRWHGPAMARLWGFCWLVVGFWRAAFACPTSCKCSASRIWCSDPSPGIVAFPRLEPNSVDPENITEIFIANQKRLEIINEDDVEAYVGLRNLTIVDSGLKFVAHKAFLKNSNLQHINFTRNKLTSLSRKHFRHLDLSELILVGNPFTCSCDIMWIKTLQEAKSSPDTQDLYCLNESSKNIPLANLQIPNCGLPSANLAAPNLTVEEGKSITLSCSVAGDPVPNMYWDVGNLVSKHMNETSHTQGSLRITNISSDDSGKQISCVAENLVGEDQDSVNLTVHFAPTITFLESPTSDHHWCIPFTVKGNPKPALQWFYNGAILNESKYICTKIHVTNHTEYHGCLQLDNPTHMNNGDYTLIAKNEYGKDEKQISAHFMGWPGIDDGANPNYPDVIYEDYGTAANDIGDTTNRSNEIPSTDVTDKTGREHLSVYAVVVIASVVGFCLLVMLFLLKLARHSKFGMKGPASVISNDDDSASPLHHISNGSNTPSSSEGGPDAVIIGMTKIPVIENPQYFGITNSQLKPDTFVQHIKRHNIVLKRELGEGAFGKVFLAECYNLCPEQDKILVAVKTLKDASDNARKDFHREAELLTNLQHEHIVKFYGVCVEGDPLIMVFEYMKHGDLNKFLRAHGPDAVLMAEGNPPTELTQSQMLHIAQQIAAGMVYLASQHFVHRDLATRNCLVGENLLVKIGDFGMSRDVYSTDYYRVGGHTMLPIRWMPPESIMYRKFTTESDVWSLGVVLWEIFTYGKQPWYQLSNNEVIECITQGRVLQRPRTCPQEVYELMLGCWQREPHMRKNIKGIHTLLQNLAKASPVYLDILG

C#Cc1cccc(C=NNC(=O)c2ccc(Br)cc2)c1O — MFC (Cryptococcus neoformans; microbial killing): 0.4 µg/mL
Cn1cc(C2=C(c3cn(C4CCN(Cc5ccccn5)CC4)c4ccccc34)C(=O)NC2=O)c2ccccc21 — IC50 (Betacoronavirus 1; viral replication; MRC5, OC43): 17600 nM
COC(=O)c1cc(-c2ccc(NC(=O)Nc3ccc(Cl)c(Cl)c3)cc2)on1 — MIC (Pseudomonas aeruginosa; microbial growth, broth dilution; ATCC27853): > 64 µg/mL
OC(Cn1cncn1)(Cn1cncn1)c1ccc(F)cc1F — MFC (Candida albicans; microbial killing, broth dilution; 14936; 48 h): > 64 µM
Nc1ncnc2c([C@@H]3N[C@H](CO)[C@@H](O)[C@H]3O)c[nH]c12 — inhibition (Dengue virus; viral replication; Vero 76, DENV2; 29.6 µM): 51.5%
O=C(NNc1cccc(Cl)c1)c1nnc(C23CC4CC(CC(C4)C2)C3)o1 — inhibition (Rhizoctonia solani; microbial growth; 50 µg/mL): 55.9%
Cc1cc(Nc2ccc3c(c2)CCC3)n2ncnc2n1 — EC50 (Plasmodium falciparum; parasite growth, SYBR Green; 3D7; 72 h): 16100 nM
COC(=O)c1cc(-c2cccc(NC(=S)Nc3ccc(C)cc3)c2)on1 — MIC (Klebsiella pneumoniae; microbial growth, broth dilution; BAA1705): > 64 µg/mL
CC(=O)N1CCN(c2ccc(OCC3COC(Cn4ccnc4)(c4ccc(Cl)cc4Cl)O3)cc2)CC1 (stereo not shown) — MFC (Candida albicans; microbial killing, broth dilution; SP3931; 48 h): > 64 µM
COC(=O)c1cc(-c2cccc(NC(=O)Nc3ccccc3C)c2)on1 — MIC (Pseudomonas aeruginosa; microbial growth, broth dilution; ATCC27853): > 64 µg/mL
COC(CNC1=CC2=NCCc3c[nH]c(c32)C1=O)c1c[nH]c2ccccc12 (stereo not shown) — IC50 (Plasmodium falciparum; parasite growth, SYBR Green; 3D7; blood stage): 280 nM
COC(=O)c1cc(-c2cccc(NC(=O)Nc3cccc(Br)c3)c2)on1 — MIC (Klebsiella pneumoniae; microbial growth, broth dilution; BAA1705): > 64 µg/mL
O=C(NNc1ccc(F)c(F)c1)c1nnc(CC23CC4CC(CC(C4)C2)C3)o1 — inhibition (Rhizoctonia solani; microbial growth; 50 µg/mL): 70.5%
COC(=O)c1cc(-c2cccc(NC(=O)Nc3ccc(F)cc3)c2)on1 — MIC (Mycobacteroides chelonae; microbial growth, broth dilution; ATCC35752; 48 h): > 64 µg/mL
O=C(NNc1ccc(Cl)c(Cl)c1)c1nnc(C23CC4CC(CC(C4)C2)C3)o1 — inhibition (Rhizoctonia solani; microbial growth; 50 µg/mL): 75.4%
C#Cc1cccc(C(=O)NN=Cc2cc(C#C)ccc2O)c1 — MIC80 (Cryptococcus neoformans; microbial growth, broth dilution; pH 7.4): 0.12 µg/mL (≈ 0.416 µM)
[2H]c1c([2H])c([C@]2([2H])CCCN2C(=O)C(C)(C)Oc2ccc3cn[nH]c3c2)c([2H])c([2H])c1C([2H])([2H])[2H] — remaining binding (NTRK2 (Homo sapiens, UniProt Q16620); binding, competition with immobilised ligand; 1 µM): 85%
C#Cc1cccc(C=NNC(=O)c2ccc(Br)cc2Br)c1O — MIC80 (Candida albicans; microbial growth; pH 7.4): 16 µg/mL (≈ 37.9 µM)
CCOC(=O)c1cc(-c2cccc(NC(=O)Nc3ccc(Cl)c(Cl)c3)c2)on1 — MIC (Pseudomonas aeruginosa; microbial growth, broth dilution; ATCC27853): > 64 µg/mL
C#Cc1ccc(C=NNC(=O)c2ccc(COC(C)C)cc2)c(O)c1 — MIC80 (Candida albicans; microbial growth; pH 7.4): 1 µg/mL (≈ 2.97 µM)
COc1ccc(-n2ccnc2SCC(=O)Nc2cccc(C(F)(F)F)c2)c(OC)c1 — EC50 (Plasmodium falciparum; parasite growth, SYBR Green; 3D7; 72 h): 1730 nM
C#Cc1ccc(O)c(C=NNC(=O)c2cc(Br)cc(Br)c2O)c1 — MIC80 (Cryptococcus neoformans; microbial growth, broth dilution; pH 7.4): 0.03 µg/mL (≈ 0.0685 µM)
COC(=O)c1cc(-c2cccc(NC(=O)Nc3cccc(Cl)c3)c2)on1 — MIC (Klebsiella pneumoniae; microbial growth, broth dilution; BAA1705): > 64 µg/mL
Cc1noc(-c2cccs2)c1C(=O)NC(C)c1cccc2ccccc12 (stereo not shown) — EC50 (Plasmodium falciparum; parasite growth, SYBR Green; 3D7; 72 h): 329 nM
C#Cc1cc(O)c(C=NNC(=O)c2ccc(Br)c(Br)c2)cc1C#C — MIC80 (Candida albicans; microbial growth; pH 7.4): 0.5 µg/mL (≈ 1.12 µM)
